Assay results of several laboratories.
Parts stem from different laboratories: compare values within a part only.
Chain of UniProt Q9HAZ1 (whole entry, looked up): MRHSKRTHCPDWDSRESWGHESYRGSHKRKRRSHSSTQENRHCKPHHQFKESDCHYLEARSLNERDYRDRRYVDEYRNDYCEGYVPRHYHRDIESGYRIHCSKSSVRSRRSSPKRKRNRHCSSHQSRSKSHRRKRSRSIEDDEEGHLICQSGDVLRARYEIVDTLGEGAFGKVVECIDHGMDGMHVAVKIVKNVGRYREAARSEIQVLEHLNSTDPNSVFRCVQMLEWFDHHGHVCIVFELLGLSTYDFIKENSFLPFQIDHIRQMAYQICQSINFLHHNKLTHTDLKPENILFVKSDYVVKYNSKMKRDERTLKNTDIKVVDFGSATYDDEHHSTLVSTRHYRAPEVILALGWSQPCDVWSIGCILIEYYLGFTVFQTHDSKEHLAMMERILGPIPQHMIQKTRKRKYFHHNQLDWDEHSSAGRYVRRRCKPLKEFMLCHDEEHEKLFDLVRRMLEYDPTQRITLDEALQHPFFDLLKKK
Chain of UniProt Q13470 (whole entry, looked up): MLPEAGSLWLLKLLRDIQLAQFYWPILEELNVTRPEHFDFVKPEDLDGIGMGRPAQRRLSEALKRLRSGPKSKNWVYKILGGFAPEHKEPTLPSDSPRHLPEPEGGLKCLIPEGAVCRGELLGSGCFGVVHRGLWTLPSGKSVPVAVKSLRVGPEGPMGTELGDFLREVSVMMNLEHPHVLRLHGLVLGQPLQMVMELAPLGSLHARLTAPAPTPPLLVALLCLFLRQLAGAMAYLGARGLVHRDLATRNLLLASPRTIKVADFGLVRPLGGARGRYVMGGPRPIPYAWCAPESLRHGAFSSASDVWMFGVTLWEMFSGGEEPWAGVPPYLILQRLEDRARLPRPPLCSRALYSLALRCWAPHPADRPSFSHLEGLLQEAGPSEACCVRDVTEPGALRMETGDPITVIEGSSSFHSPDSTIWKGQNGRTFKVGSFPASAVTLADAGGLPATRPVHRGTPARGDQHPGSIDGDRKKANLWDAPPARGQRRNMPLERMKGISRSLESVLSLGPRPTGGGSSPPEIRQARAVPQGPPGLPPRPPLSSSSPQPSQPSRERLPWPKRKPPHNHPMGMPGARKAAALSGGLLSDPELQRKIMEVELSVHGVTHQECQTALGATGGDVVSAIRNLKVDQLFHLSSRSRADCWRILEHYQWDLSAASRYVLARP
Chain of UniProt O43318 (whole entry, looked up): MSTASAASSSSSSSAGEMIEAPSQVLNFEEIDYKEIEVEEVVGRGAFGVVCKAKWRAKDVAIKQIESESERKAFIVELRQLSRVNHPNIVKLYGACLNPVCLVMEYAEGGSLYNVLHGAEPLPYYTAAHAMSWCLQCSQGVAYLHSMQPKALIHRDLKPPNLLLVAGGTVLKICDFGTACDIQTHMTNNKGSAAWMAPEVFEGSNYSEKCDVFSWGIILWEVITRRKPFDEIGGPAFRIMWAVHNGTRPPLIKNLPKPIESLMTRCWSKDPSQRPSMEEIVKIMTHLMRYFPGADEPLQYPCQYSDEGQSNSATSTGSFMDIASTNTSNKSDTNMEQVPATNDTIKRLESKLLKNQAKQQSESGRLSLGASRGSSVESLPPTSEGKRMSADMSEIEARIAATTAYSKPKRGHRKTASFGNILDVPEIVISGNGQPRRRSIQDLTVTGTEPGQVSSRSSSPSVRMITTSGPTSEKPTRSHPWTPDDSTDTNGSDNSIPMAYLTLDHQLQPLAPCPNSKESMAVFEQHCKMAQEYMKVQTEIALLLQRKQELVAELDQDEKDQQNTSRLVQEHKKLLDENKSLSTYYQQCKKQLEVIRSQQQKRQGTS
Chain of UniProt Q02750 (whole entry, looked up): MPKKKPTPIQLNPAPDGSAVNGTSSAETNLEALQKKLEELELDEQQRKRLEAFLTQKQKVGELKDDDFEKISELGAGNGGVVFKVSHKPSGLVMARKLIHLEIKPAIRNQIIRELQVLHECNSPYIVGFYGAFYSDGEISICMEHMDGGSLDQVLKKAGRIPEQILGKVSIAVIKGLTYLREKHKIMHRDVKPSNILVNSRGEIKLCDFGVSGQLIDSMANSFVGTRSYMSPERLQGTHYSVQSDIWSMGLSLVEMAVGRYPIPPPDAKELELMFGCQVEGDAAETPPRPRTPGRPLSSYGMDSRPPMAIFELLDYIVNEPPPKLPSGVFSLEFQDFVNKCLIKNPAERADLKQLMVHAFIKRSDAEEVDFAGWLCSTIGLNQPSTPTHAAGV
Chain of UniProt Q12851 (whole entry, looked up): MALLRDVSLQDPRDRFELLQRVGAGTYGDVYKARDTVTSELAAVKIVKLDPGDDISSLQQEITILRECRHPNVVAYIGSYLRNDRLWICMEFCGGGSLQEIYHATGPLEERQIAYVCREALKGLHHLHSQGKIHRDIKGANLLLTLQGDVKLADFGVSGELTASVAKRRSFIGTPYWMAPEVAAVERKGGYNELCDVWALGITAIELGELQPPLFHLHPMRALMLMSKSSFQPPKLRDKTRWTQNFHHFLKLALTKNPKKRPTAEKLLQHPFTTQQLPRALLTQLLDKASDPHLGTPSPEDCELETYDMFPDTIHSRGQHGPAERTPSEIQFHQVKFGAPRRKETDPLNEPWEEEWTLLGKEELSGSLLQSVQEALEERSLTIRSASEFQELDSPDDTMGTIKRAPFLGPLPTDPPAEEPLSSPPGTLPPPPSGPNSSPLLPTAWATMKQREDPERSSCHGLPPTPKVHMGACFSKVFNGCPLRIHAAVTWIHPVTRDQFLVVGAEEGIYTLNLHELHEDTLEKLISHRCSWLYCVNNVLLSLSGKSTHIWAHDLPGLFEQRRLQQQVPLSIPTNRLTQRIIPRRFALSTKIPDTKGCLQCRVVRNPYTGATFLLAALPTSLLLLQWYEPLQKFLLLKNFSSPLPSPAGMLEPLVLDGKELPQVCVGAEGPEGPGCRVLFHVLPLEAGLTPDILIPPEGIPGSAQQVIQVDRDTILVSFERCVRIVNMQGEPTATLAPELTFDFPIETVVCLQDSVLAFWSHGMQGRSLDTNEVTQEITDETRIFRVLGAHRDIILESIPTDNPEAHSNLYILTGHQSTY
Chain of UniProt Q00537 (whole entry, looked up): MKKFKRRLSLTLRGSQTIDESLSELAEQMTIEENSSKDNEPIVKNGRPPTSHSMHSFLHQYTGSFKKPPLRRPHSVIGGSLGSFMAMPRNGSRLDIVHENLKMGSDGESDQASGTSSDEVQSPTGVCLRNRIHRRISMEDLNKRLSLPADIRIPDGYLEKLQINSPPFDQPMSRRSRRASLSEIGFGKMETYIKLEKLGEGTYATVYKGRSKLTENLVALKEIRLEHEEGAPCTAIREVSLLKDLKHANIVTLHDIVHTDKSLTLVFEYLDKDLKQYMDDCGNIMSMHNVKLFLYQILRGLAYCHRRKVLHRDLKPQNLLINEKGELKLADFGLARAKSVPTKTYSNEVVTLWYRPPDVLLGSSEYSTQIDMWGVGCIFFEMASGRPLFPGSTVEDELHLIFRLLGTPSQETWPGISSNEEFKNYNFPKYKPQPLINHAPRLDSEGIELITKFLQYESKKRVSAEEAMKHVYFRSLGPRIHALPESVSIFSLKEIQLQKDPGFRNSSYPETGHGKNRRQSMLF
Chain of UniProt P15056 (whole entry, unmodified, looked up): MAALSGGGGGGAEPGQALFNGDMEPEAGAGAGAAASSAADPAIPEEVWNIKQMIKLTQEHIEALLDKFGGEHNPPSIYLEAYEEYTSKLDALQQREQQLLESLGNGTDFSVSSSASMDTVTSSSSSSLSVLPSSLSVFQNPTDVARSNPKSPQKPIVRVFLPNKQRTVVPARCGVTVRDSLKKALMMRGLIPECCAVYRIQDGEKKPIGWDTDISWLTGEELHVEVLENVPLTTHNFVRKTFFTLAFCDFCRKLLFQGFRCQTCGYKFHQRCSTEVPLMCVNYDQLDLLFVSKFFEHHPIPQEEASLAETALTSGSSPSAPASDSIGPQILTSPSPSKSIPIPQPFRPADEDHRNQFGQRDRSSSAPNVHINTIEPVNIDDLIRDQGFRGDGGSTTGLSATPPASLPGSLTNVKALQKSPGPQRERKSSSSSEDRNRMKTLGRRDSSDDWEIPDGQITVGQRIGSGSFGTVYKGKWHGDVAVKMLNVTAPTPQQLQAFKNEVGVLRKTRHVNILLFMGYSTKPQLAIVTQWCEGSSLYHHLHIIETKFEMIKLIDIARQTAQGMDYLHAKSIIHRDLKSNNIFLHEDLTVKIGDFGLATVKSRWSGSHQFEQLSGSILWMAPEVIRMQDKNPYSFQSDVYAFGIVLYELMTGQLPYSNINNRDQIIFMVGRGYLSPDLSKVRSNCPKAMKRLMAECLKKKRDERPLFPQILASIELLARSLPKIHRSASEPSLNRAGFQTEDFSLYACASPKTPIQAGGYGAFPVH

Set 1
Target: Beta-1 adrenergic receptor (ADRB1, Homo sapiens, UniProt P08588)
Chain of UniProt P08588 (whole entry, looked up): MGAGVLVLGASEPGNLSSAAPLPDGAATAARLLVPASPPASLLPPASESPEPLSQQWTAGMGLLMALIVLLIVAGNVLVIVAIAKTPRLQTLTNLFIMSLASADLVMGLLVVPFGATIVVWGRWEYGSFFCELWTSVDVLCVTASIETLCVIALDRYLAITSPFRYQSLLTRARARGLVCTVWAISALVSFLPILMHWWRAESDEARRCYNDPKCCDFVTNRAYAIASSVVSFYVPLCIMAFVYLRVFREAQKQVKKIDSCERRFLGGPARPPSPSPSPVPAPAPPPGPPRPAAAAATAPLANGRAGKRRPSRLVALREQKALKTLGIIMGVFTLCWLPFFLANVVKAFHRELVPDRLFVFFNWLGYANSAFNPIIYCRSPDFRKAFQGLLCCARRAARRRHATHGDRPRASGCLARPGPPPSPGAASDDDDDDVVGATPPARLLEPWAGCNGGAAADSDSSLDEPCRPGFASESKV
Action: antagonist
Measurement: IC50
COc1ccc(CN2CCOc3nc(-c4cn[nH]c4)ncc3C2=O)cc1: ≥ 100 µM
O=C(Nc1ccccc1)Nc1ccc([C@@H](O)[C@H]2COCC(=O)N2Cc2ccc(F)cc2)cc1: ≥ 100 µM
O=C1COC[C@H]([C@H](O)c2ccc(NC(=O)c3ccc(C(F)(F)F)cc3)cc2)N1: ≥ 100 µM
CN1CCN(CC(O)COc2ccc(CN3CC(c4ccccn4)C3)cc2)CC1 (stereo not drawn): ≥ 100 µM
Cc1noc2c(-c3cn[nH]c3)cc(-c3ccccc3)nc12: ≥ 100 µM
Cc1ccccc1-n1ncc2c(NCC(C)O)ncnc21 (stereo not drawn): ≥ 100 µM
CC(C)c1ccc(NC(=O)c2cc3c(nc2O)CC(C)(C)CC3=O)cc1: ≥ 100 µM
O=C(CCc1ccccc1)Nc1ccc([C@@H](O)[C@H]2COCC(=O)N2Cc2ccccc2F)cc1: ≥ 100 µM

Set 2
Structure (SMILES): O=C(Nc1cnn(-c2csc(C(=O)NC3COC3)c2)c1)Nc1c(F)cccc1Cl
Observed: enzyme activity
Tested at: 5 µM
Baseline: untreated control
Measurement: remaining activity
CLK4 (Homo sapiens, UniProt Q9HAZ1): 92.9%
MAP3K7 (Homo sapiens, UniProt O43318): 109%
MAP4K2 (Homo sapiens, UniProt Q12851): 91%
TNK1 (Homo sapiens, UniProt Q13470): 90.7%
MAP3K20 (Homo sapiens, UniProt Q9NYL2): 88.5%
Cyclin-dependent kinase 17, with cyclin Y (CDK17, Homo sapiens, UniProt Q00537): 94.3%
MAP2K1 (Homo sapiens, UniProt Q02750): 107%
MINK1 (Homo sapiens, UniProt Q8N4C8): 57.8%

Single results of other studies
CC(C)n1cnc(-c2ccc(F)cc2)c1-c1ncc(C(=O)Nc2ccc(N3CCN(C)CC3)cc2)[nH]1  patients with Synovitis TEAE (phase 2a clinical trial; patients with idiopathic pulmonary fibrosis; 60 mg once daily): 0%
Cn1cncc1[C@](O)(COc1ccc(C#N)cc1-c1ccc(OC(F)(F)F)cc1)c1ccc(C#N)cc1  remaining binding (BRAF (Homo sapiens, UniProt P15056, V600E); cell-free assay, competition with immobilised ligand; 1 µM): 82%
